{"data": "Results collected from several papers", "note": "A part holds a random share of what one study measured. “And” joins repeats or separate records; there may be more than shown."}
{"data": "Block 1", "cell line": "HEK-293T/ACE2", "tested at": "concentration not given", "time": "16 (unit not given)", "baseline": "vehicle"}
{"Structure (SMILES)": "CN(C)CCC[C@@]1(c2ccc(F)cc2)OCc2cc(C#N)ccc21", "viability": "109%"}
{"Structure (SMILES)": "CC1=C(C(=O)O)N2C(=O)[C@@H](NC(=O)[C@H](N)c3ccc(O)cc3)[C@H]2SC1", "viability": "101%"}
{"Structure (SMILES)": "C[N+](C)(C)CCOC(N)=O", "viability": "104%"}
{"Structure (SMILES)": "Cc1ccc(C(=O)c2ccc(CC(=O)O)n2C)cc1", "viability": "105%"}
{"Structure (SMILES)": "C[C@@H](c1nc(-c2ccc(C#N)cc2)cs1)[C@](O)(Cn1cncn1)c1cc(F)ccc1F", "viability": "69.8%"}
{"data": "Block 2", "target": "Replicase polyprotein 1ab, polymerase (rep, Severe acute respiratory syndrome coronavirus 2, UniProt P0DTD1)", "observed": "enzyme activity", "mode": "inhibitor", "tested at": "20 µM"}
{"SMILES": "COc1ccc(-c2ccc3ncc4c(c3c2)n(-c2ccc(N3CCNCC3)c(C(F)(F)F)c2)c(=O)n4C)cn1", "inhibition [%]": 27}
{"SMILES": "Cc1cc(C)nc(NS(=O)(=O)c2ccc(NC(=S)NC(=O)COc3ccc(Br)cc3Cl)cc2)n1", "inhibition [%]": 1.21}
{"SMILES": "O=C(O)c1ccc(O)c2ncccc12", "inhibition [%]": 0.16}
{"SMILES": "CC(C)C(=O)OCC(=O)[C@@]12O[C@H](C3CCCCC3)O[C@@H]1C[C@H]1[C@@H]3CCC4=CC(=O)C=C[C@]4(C)[C@H]3[C@@H](O)C[C@@]12C", "inhibition [%]": 3.03}
{"SMILES": "Cc1ncc(CSSCc2cnc(C)c(O)c2CO)c(CO)c1O", "inhibition [%]": -3.08}
{"SMILES": "c1ccc(NCc2ccc(CNc3ccccn3)cc2)nc1", "inhibition [%]": -2.76}
{"SMILES": "COC(=O)C1=C(C)NC(C)=C(C(=O)OC/C=C/c2ccccc2)C1c1cccc([N+](=O)[O-])c1 (stereo not drawn)", "inhibition [%]": 0.33}
{"SMILES": "CN(Cc1ccccc1)C(=O)[C@H](Cc1ccc2ccccc2c1)NC(=O)[C@@H]1CCCN1C(=O)Nc1ccccc1[N+](=O)[O-]", "inhibition [%]": -2.41}
{"SMILES": "COc1cc2c(NC3CCN(C)CC3)nc(N3CCCN(C)CC3)nc2cc1OCCCN(C)C", "inhibition [%]": 102}
{"SMILES": "O=c1c(O)c(-c2ccc(O)cc2O)oc2cc(O)cc(O)c12", "inhibition [%]": 95.7}
{"SMILES": "O=C(Nc1cnccc1Cl)N1CCN(Cc2ccc3c(c2)OC(F)(F)O3)CC1", "inhibition [%]": -0.17}
{"SMILES": "CCCCCCCCCCCCCCCCNc1ccc(C(=O)O)cc1", "inhibition [%]": 17.8}
{"SMILES": "Nc1nc(Cl)nc2c1ncn2[C@@H]1O[C@H](CO)[C@@H](O)[C@H]1O", "inhibition [%]": -4.82}
{"SMILES": "OC[C@H]1O[C@@H](c2ccc(Cl)c(Cc3ccc(O[C@H]4CCOC4)cc3)c2)[C@H](O)[C@@H](O)[C@@H]1O", "inhibition [%]": 0.73}
{"SMILES": "NC(Cc1ccc(Cl)cc1)C(=O)O (racemic)", "inhibition [%]": -5.71}
{"SMILES": "CC1(COc2ccc(CC3SC(=O)NC3=O)cc2)CCCCC1 (stereo not drawn)", "inhibition [%]": -2.38}
{"SMILES": "Cc1nc(NC(=O)N2CCC[C@H]2C(N)=O)sc1-c1ccnc(C(C)(C)C(F)(F)F)c1", "inhibition [%]": 1.02}
{"SMILES": "C[C@H](Cc1cc2c(c(C(N)=O)c1)N(CCCO)CC2)NCCOc1ccccc1OCC(F)(F)F", "inhibition [%]": 0.1}
{"SMILES": "CC[C@@H](CO)NC(=O)[C@@H]1C=C2c3cccc4[nH]cc(c34)C[C@H]2N(C)C1", "inhibition [%]": 2.03}
{"SMILES": "CN1[C@@H]2CC(O)C[C@H]1[C@@H]1O[C@@H]12 (stereo partly drawn)", "inhibition [%]": 2.71}
{"SMILES": "COc1ccccc1OCC(O)CNC(C)C (stereo not drawn)", "inhibition [%]": -0.5}
{"data": "Block 3", "organism": "SARS-CoV-2", "observed": "cytopathic effect", "cell line": "Vero E6", "tested at": "10 µM"}
{"SMILES": "O=C1OC2(c3cc(I)c(O)c(I)c3Oc3c2cc(I)c(O)c3I)c2c(Cl)c(Cl)c(Cl)c(Cl)c21", "inhibition": "75.5%"}
{"SMILES": "CCOC(=O)c1c(N)sc(-c2ccccc2)c1C", "inhibition": "3.7%"}
{"SMILES": "O=[N+]([O-])c1ccc(Sc2cccc[n+]2[O-])c2nonc12", "inhibition": "-17.5%"}
{"SMILES": "Nc1nnc(Sc2ncc([N+](=O)[O-])s2)s1", "inhibition": "-33.1%"}
{"SMILES": "CC(C)C[C@@H](C=O)NC(=O)[C@H](CC(C)C)NC(=O)[C@H](CC(C)C)NC(=O)OCc1ccccc1", "inhibition": "-15.8% and -12.2%"}
{"data": "Block 4", "target": "Sal-like protein 4, full length isoform A (SALL4, Homo sapiens, UniProt Q9UJQ4, residues 1-1053)", "method": "universal PBM", "form": "double-stranded DNA, one strand shown", "medium": "in vitro", "tested at": "600 nM", "setting": "8-mer, flanks averaged, mean of replicates", "reading": "higher = stronger binding", "UniProt Q9UJQ4, sequence (whole entry, looked up)": "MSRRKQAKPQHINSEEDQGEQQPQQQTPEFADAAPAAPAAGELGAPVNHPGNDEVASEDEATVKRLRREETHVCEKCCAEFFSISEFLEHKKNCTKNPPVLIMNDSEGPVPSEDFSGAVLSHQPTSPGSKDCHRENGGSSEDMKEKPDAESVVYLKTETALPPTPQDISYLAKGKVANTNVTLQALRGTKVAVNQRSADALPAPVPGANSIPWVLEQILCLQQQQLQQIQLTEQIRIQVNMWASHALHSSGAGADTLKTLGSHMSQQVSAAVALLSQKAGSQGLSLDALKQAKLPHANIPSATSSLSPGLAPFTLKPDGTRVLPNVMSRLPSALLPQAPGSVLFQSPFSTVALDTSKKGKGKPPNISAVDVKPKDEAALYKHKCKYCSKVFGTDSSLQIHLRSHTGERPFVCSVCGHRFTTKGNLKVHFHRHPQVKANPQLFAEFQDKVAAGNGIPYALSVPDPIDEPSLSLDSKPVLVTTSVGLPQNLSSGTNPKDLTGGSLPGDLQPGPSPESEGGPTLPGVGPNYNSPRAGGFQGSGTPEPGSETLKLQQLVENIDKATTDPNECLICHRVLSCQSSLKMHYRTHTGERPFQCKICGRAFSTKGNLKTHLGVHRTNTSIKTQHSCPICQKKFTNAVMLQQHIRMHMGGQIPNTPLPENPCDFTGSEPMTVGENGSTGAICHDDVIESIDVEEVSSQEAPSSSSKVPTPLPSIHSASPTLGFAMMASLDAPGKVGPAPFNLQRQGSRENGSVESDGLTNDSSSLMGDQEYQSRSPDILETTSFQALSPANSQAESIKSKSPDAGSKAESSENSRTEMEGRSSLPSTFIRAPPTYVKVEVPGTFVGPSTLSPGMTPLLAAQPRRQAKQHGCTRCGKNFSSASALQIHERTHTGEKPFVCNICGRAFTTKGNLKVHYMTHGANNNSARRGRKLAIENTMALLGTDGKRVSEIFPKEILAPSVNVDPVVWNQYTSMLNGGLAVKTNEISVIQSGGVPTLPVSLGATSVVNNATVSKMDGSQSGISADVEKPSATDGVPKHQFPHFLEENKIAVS"}
{"Sequence": "CTCTTTAC", "E-score": 0.024}
{"Sequence": "GAACCTGC", "E-score": -0.19}
{"Sequence": "AACGACCA", "E-score": -0.0513}
{"Sequence": "GAACTATC", "E-score": -0.00131}
{"Sequence": "CTAGAGCA", "E-score": -0.202}
{"Sequence": "AGTACCTC", "E-score": -0.149}
{"Sequence": "CACACGAC", "E-score": -0.131}
{"Sequence": "CACGTTTA", "E-score": 0.21}
{"data": "Block 5", "target": "Transcriptional repressor CTCF (CTCF, Homo sapiens, UniProt P49711, residues 1-727, full length assumed)", "method": "protein-binding microarray", "form": "double-stranded DNA, one strand shown", "medium": "in vitro", "tested at": "not given", "setting": "k-mer, scored over probes, only values ≥0.25", "reading": "higher = stronger binding", "Residues (chain)": "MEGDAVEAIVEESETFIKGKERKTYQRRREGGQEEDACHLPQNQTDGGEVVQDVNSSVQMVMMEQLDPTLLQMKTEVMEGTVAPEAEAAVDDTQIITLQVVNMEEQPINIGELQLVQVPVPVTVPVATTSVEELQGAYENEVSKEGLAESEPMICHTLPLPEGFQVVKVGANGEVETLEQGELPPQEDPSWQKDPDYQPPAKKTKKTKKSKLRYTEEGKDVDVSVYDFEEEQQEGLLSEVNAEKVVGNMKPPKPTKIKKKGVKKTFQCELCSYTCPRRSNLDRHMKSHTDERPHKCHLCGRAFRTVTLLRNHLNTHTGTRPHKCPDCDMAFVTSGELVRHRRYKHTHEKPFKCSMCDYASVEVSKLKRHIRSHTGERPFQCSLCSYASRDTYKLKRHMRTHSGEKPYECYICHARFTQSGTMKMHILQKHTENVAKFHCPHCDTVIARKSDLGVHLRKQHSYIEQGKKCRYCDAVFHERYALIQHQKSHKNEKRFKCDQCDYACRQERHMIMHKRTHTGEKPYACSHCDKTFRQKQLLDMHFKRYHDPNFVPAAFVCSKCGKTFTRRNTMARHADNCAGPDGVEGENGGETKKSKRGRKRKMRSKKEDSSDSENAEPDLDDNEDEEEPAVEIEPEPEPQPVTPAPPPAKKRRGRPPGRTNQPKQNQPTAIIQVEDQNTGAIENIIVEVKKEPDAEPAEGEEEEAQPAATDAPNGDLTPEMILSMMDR"}
{"Sequence": "ATCAATTA", "E-score": 0.277}
{"Sequence": "GATTGTTA", "E-score": 0.255}
{"Sequence": "CATAATAG", "E-score": 0.292}
{"note": "Some of these lines once more (block 2):"}
{"SMILES": "NC(Cc1ccc(Cl)cc1)C(=O)O (racemic)", "inhibition [%]": -5.71}
{"SMILES": "CC1(COc2ccc(CC3SC(=O)NC3=O)cc2)CCCCC1 (stereo not drawn)", "inhibition [%]": -2.38}
{"SMILES": "Cc1nc(NC(=O)N2CCC[C@H]2C(N)=O)sc1-c1ccnc(C(C)(C)C(F)(F)F)c1", "inhibition [%]": 1.02}
{"SMILES": "C[C@H](Cc1cc2c(c(C(N)=O)c1)N(CCCO)CC2)NCCOc1ccccc1OCC(F)(F)F", "inhibition [%]": 0.1}
{"SMILES": "CC[C@@H](CO)NC(=O)[C@@H]1C=C2c3cccc4[nH]cc(c34)C[C@H]2N(C)C1", "inhibition [%]": 2.03}
